Published values from different studies.
Numbered parts are unrelated; each lists some results of a single study.

Study 1
Target: Prothrombin, mature alpha-thrombin (F2, Homo sapiens, UniProt P00734)
Method: aptamer microarray, sandwich
Form: DNA with 2'F-ANA
Matrix: in vitro
Tested at: 200 nM
Setting: whole 15-mer aptamer, many near background
With: Cy3 exosite-II aptamer, 400 nM
Reading: higher = stronger binding
Oligonucleotide: GGTTGGTGTGGTTGG
Modification	mean fluorescence intensity
2'F-ANA at 1 2 6 7 11 13	197 a.u.
2'F-ANA at 1 2 3 4 7 10 11 13 14	48.1 a.u.
2'F-ANA at 1 2 3 4 5 6 8 11 12 14 15	47.2 a.u.
2'F-ANA at 4 6 7 10 11 14 15	59.7 a.u.
2'F-ANA at 2 5 6 7 8 12 13	141 a.u.
2'F-ANA at 2 3 4 5 6 10 11 12	56.8 a.u.
2'F-ANA at 1 2 3 4 10 11 13 15	66.3 a.u.

Study 2
Target: Histone acetyltransferase KAT6A, both winged helices, GST fusion (KAT6A, Homo sapiens, UniProt Q92794, residues 1-181)
Method: protein binding microarray
Form: double-stranded DNA, one strand shown
Matrix: in vitro
Tested at: not given
Setting: 8-mer, flanks averaged, mean of 2 arrays, mostly near background
Reference: not given
Reading: higher = stronger binding
Residues (chain): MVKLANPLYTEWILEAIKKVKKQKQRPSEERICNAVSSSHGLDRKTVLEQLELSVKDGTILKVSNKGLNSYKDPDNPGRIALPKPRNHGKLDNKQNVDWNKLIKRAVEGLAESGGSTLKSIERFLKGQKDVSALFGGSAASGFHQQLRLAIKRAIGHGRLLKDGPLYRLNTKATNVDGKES
Oligonucleotide	E-score
CCCCGGGA	0.205
CACAGGAG	-0.0623
GCTGGTAC	0.0336
AAGGCTAG	-0.182
ACAGCAAG	-0.206
CCATTGCC	-0.11
GCGCCTTA	0.209
CGCGATTA	0.134
CCCCACGG	0.189

Study 3
Target: RING finger protein unkempt homolog, zinc fingers 1-6, SBP tag (UNK, Homo sapiens, UniProt Q9C0B0, residues 30-357)
Sequence of UniProt Q9C0B0 (30-357, looked up): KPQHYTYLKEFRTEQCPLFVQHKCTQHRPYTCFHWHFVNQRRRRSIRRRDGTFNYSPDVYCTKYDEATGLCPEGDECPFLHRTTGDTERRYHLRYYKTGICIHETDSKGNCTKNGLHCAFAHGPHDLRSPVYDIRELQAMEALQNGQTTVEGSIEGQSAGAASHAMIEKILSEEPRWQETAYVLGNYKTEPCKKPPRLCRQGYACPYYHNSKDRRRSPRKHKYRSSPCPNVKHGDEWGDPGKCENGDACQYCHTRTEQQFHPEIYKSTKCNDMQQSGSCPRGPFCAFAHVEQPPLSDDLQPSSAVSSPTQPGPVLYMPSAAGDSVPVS
Method: RNA Bind-n-Seq
Form: RNA
Matrix: in vitro
Tested at: 100 nM
Setting: RNA with constant flanks, vertebrate orthologous sites, ends assumed
Reference: input RNA pool
Reading: higher = stronger binding
Oligonucleotide	bound/input enrichment
GGGAGUUCUACAGUCCGACGAUCGUUUUAAAGUCAUUUUUUCACAUUUCCUGUAAAUAAUGGAUAAUCAUUUCUUUUAUUUUUAAGUACUGUUUUAACAAUGUGGAUGACCAUAAAUGUACUUGCUGAAUUCAUUCUUUUUUACAACAGAGGAUUGAGCAUCA	0.295 ratio
GGGAGUUCUACAGUCCGACGAUCAACCUCCUGAACUGCUCAAUUUCAAGCUGUGGCUGUUUUAGAUACUGGUUUUGUUUUCUUUACCAUUCUUCCCUGUUUUCCACCUUCUCUACCCCUCUUCCCAAGGUUUGACUCAUGGAUCAACAGAGGAUUGAGCAUCA	0.93 ratio
GGGAGUUCUACAGUCCGACGAUCCUCUAUGGGCCUCGCAGAGUUGAAGUAAUGGAAGAGGAAAGUGAACAGUAAUCUUCAUUUUAGUAUUUAUGUUUAGGUGUGAAAUAAAUGUUACUUGUUGAUCAUUUCUAUAAUUCAGAGCAACAGAGGAUUGAGCAUCA	0.912 ratio
GGGAGUUCUACAGUCCGACGAUCCUUUUAACCAGUUAUGUCUGUAAAUGUAUAUUGAGAGAACUGAAAUAUUUAUAAACAGAGUGAUUUAUUUAAGGAAAAGCUCAUUCCUCUUUCGUAUGGUGGUCUGUGUUAAUUACAUUUCAACAGAGGAUUGAGCAUCA	0.955 ratio

Further values, each from its own experiment
Substance	tested on	test	test system	conditions	how to read	measurement	value
PhoQ, residues 284 288 289 292 302 303 SLCLSL	PhoP, residues 12 14 15 18 19 NHFRA (Escherichia coli, UniProt P23836)	Sort-seq, measured: YFP reporter	E. coli	PhoQ-PhoP variant library, with: 10 µM Mg2+	reference: high Mg2+ state, higher = stronger signaling	fold induction	5.9
MYH9 (Homo sapiens, UniProt P35579)	MYL6 (Homo sapiens, UniProt P60660)	cross-linking MS	cell fractions	with: DSSO	–	cross-linked residues	K1459 to K81

Some of these lines once more (study 2):
Oligonucleotide	E-score
CCATTGCC	-0.11
GCGCCTTA	0.209
